Assay results collected from several papers.
Each numbered part is a random draw from the data of one study; scales do not carry over between parts. Values joined by “and” are separate records of one study, mostly repeats; a detail may differ.
UniProt Q9Y6R4, sequence (whole entry, looked up): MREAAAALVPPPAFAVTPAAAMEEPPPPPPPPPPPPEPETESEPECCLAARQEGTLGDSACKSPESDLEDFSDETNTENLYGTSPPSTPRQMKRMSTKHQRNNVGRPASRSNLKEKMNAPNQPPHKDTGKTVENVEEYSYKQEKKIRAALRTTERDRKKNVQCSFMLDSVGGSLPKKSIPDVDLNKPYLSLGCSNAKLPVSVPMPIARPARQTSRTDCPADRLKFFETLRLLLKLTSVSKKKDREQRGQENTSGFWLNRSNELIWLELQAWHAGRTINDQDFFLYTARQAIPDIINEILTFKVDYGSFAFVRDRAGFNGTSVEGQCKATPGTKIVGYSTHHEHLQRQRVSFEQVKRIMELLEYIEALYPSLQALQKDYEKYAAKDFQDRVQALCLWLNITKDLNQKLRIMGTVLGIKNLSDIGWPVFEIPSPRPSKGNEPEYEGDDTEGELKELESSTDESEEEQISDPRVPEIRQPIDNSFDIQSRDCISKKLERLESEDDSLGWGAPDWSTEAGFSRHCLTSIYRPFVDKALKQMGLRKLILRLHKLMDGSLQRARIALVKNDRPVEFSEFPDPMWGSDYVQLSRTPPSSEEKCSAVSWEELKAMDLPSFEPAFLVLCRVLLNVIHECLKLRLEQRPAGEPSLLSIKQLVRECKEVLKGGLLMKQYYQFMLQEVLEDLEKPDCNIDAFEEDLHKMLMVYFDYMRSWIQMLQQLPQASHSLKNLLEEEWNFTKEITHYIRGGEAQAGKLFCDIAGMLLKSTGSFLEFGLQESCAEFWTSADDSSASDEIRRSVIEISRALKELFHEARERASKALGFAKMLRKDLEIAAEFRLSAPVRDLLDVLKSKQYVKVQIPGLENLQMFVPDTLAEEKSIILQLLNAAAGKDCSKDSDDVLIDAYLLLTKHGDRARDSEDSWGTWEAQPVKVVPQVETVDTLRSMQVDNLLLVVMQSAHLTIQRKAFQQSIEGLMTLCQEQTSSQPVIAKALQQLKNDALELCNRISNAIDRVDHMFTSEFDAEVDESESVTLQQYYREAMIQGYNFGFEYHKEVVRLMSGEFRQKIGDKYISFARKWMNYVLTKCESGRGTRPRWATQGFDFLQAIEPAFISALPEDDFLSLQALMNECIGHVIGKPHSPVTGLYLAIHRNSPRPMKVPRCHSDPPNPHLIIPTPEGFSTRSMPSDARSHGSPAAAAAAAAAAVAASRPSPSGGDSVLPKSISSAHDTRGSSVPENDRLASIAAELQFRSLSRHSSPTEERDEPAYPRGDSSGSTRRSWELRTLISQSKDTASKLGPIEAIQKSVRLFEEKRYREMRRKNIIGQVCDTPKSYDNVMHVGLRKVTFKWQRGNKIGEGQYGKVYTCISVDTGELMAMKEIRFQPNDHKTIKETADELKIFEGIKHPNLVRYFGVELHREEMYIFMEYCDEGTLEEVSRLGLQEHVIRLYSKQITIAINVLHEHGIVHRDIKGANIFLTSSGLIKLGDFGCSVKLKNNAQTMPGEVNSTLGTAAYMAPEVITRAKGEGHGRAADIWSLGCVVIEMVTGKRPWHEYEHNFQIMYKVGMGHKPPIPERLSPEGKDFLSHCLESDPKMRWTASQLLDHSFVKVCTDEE
UniProt P50613, sequence (whole entry, looked up): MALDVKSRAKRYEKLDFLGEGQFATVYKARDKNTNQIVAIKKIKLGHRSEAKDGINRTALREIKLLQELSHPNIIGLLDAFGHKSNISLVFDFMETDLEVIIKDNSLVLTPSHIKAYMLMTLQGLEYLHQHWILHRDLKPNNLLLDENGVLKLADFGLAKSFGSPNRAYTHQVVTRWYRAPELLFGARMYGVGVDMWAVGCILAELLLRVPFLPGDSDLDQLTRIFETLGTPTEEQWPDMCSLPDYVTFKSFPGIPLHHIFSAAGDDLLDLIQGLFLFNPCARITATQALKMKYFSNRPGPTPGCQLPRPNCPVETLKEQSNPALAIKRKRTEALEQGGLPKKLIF
UniProt Q32MK0, sequence (whole entry, looked up): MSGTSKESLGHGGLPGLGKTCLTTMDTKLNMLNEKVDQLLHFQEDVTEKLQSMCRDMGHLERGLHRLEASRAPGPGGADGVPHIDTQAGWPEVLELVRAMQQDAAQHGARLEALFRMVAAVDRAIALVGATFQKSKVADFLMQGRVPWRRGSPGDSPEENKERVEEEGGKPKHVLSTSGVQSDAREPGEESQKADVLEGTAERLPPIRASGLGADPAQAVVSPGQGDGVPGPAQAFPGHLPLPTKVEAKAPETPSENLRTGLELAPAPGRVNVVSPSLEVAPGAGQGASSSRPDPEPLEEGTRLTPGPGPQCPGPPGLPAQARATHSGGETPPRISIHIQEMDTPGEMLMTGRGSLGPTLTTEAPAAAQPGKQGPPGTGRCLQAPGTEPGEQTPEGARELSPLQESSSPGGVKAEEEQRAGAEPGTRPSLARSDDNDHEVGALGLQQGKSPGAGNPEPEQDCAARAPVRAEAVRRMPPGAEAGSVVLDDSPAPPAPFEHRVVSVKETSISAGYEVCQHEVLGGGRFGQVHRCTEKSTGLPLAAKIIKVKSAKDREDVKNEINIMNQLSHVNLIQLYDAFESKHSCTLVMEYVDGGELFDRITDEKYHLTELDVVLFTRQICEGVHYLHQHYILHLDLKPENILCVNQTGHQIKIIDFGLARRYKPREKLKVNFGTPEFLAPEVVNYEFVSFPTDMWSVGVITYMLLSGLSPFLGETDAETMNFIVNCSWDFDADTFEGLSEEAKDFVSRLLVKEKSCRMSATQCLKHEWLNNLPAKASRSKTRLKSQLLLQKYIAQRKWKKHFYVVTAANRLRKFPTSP
UniProt O14965, sequence (whole entry, looked up): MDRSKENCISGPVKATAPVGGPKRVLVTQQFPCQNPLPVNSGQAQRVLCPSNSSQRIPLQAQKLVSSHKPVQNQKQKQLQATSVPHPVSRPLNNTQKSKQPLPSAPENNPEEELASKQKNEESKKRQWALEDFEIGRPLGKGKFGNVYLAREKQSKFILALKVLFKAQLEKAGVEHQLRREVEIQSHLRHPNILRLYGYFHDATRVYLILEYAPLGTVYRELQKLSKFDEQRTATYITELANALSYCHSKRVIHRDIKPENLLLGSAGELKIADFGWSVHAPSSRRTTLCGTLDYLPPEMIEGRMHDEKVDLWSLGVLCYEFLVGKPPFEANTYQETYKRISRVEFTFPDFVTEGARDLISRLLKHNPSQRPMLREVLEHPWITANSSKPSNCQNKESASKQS
UniProt P51817, sequence (whole entry, looked up): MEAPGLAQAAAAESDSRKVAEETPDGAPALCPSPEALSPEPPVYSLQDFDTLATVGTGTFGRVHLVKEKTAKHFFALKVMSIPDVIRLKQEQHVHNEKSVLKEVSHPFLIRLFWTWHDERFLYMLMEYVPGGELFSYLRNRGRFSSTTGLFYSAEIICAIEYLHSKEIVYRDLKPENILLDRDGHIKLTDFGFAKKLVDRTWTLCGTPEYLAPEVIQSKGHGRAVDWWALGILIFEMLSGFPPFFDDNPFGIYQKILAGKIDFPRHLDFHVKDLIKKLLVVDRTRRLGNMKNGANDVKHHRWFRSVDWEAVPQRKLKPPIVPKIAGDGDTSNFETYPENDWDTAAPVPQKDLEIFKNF

Sample 1 — technique: NanoBRET; concentration: 1 µM
SMILES: COc1cc(-c2nc3ccc(C(=O)NCCCN(C)C)cc3n2C2CCC2)cc(OC)c1OC
target | target occupancy [%]
BMX (Homo sapiens, UniProt P51813) | -2.59
MAP3K4 (Homo sapiens, UniProt Q9Y6R4) | 1.22
PLK2 (Homo sapiens, UniProt Q9NYY3) | -9.57
NLK (Homo sapiens, UniProt Q9UBE8) | -1.06
CLK1 (Homo sapiens, UniProt P49759) | 3.15
CAMK2D (Homo sapiens, UniProt Q13557) | 2.05
ABL2 (Homo sapiens, UniProt P42684) | 2.61
CDK7 (Homo sapiens, UniProt P50613) | -0.83
SRMS (Homo sapiens, UniProt Q9H3Y6) | -2.06
MYLK2 (Homo sapiens, UniProt Q9H1R3) | -3.39
PRKX (Homo sapiens, UniProt P51817) | 1.09
TYRO3 (Homo sapiens, UniProt Q06418) | 3.84
Aurora kinase B (AURKB, Homo sapiens, UniProt Q96GD4) | 0.58
TBK1 (Homo sapiens, UniProt Q9UHD2) | 0.95
SIK1 (Homo sapiens, UniProt P57059) | -7.42
ULK1 (Homo sapiens, UniProt O75385) | -0.69

Sample 2 — read-out: thermal unfolding; technique: differential scanning fluorimetry; concentration: 5.5 µM; reading: higher = more unfolded
SMILES: C[C@@H]1CN(c2ccc(-c3cc(C(=O)NCCOCCOCCOCCOCCNC(=O)Cn4cc(-c5[nH]cc(C(=O)N[C@@H](CC(N)=O)c6ccc(F)c(Cl)c6)c5-c5ccc(Cl)cc5F)cn4)ccc3F)cc2NC(=O)c2c[nH]c(=O)cc2C(F)(F)F)C[C@H](C)N1C
WDR5: WD repeat-containing protein 5 (WDR5, Homo sapiens, UniProt P61964)
DCAF1: DDB1- and CUL4-associated factor 1 (DCAF1, Homo sapiens, UniProt Q9Y4B6)
UniProt Q9Y4B6, sequence (whole entry, looked up): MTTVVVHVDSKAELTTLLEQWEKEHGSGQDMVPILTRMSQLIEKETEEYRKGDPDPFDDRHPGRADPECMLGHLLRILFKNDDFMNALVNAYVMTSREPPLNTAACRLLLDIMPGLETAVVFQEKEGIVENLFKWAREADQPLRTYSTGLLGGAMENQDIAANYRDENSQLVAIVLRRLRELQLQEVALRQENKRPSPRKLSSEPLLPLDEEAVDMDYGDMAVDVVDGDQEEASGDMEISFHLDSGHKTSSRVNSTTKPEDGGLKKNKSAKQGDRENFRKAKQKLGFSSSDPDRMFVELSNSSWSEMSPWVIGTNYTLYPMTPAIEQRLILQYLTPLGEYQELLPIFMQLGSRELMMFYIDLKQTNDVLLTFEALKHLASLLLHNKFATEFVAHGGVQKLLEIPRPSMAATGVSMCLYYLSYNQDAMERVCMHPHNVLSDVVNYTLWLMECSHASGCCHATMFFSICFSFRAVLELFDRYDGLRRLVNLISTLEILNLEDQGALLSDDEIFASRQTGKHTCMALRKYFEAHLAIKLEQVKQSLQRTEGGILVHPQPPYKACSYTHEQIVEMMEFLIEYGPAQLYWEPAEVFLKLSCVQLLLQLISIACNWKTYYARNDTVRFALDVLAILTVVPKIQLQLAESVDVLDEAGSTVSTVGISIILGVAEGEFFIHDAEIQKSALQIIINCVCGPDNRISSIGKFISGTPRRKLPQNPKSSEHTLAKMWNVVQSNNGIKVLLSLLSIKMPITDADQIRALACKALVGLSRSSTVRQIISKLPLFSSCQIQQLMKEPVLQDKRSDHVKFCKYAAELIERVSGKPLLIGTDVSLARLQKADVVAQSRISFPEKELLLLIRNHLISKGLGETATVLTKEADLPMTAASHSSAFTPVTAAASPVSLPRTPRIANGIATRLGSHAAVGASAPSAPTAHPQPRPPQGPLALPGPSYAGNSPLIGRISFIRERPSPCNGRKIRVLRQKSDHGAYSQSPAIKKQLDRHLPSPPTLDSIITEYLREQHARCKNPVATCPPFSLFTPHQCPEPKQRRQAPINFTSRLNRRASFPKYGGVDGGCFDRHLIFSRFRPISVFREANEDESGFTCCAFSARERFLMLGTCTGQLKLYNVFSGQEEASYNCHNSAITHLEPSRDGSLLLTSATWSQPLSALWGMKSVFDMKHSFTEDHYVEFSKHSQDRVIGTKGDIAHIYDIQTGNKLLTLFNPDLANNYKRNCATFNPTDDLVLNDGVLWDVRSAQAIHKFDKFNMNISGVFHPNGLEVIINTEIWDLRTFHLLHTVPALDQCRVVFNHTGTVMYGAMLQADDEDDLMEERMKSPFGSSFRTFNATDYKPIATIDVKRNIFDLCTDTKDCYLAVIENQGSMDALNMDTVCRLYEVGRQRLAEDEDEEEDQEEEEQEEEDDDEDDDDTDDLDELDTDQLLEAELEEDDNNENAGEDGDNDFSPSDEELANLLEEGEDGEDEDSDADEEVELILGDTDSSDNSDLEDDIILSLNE
target | conditions | SYPRO Orange fluorescence
WDR5 | 57.81 °C | 12000 a.u.
DCAF1 | 49.2 °C | 14000 a.u.
WDR5 | 86.61 °C | 42400 a.u.
WDR5 | 84.61 °C | 38500 a.u.
WDR5 | 60.41 °C | 10100 a.u.
WDR5 | 79.81 °C | 22700 a.u.
WDR5 | 29 °C | 14900 a.u.
WDR5 | 86.21 °C | 41800 a.u.
WDR5 | 91.81 °C | 41600 a.u.
WDR5 | 28 °C | 14900 a.u.
DCAF1 | 90.41 °C | 34700 a.u.

Sample 3 — concentration: 1 µM
SMILES: CC[C@@]1(c2cccc(C(F)(F)F)c2)C2=C(Nc3n[nH]cc31)[C@H](F)C(C)(C)CC2=O (single isomer, unassigned)
target | assay | how to read | remaining binding
CDK7 (Homo sapiens, UniProt P50613) | binding, competition with immobilised ligand |  | 95%
STK3 (Homo sapiens, UniProt Q13188) | kinase binding, KINOMEscan | reference: DMSO control | 100%
LYN (Homo sapiens, UniProt P07948) | kinase binding, KINOMEscan | reference: DMSO control | 100%
CDKL3 (Homo sapiens, UniProt Q8IVW4) | binding, competition with immobilised ligand |  | 100%
ERBB3 (Homo sapiens, UniProt P21860) | binding, competition with immobilised ligand |  | 100%
TGFBR2 (Homo sapiens, UniProt P37173) | binding, competition with immobilised ligand |  | 100%
MAP3K7 (Homo sapiens, UniProt O43318) | binding, competition with immobilised ligand |  | 65%
ERN1 (Homo sapiens, UniProt O75460) | binding, competition with immobilised ligand |  | 100%
FGFR3 (Homo sapiens, UniProt P22607, G697C) | binding, competition with immobilised ligand |  | 100%
MAP3K4 (Homo sapiens, UniProt Q9Y6R4) | binding, competition with immobilised ligand |  | 100%
PRKACB (Homo sapiens, UniProt P22694) | binding, competition with immobilised ligand |  | 100%
NEK1 (Homo sapiens, UniProt Q96PY6) | kinase binding, KINOMEscan | reference: DMSO control | 89%
Aurora kinase A (AURKA, Homo sapiens, UniProt O14965) | kinase binding, KINOMEscan | reference: DMSO control | 100%
FLT3 (Homo sapiens, UniProt P36888, D835Y) | kinase binding, KINOMEscan | reference: DMSO control | 100%
CLK3 (Homo sapiens, UniProt P49761) | kinase binding, KINOMEscan | reference: DMSO control | 94%
MYLK3 (Homo sapiens, UniProt Q32MK0) | kinase binding, KINOMEscan | reference: DMSO control | 100%

Sample 4
SMILES: COc1ccc2c(c1)OC(O)(C(=O)O)C(=O)N2Cc1ccccc1 (stereo not drawn)
organism | assay | test system | conditions | how to read | inhibition
Arabidopsis thaliana | hypocotyl length | Col-0, seedlings | 12.5 µg/mL |  | 12%
Arabidopsis thaliana | root length | Col-0, seedlings | 6.25 µg/mL | reference: water control | 9.88%
Amaranthus retroflexus | fresh weight |  | 150 g ai/ha, post-emergence treatment |  | 59.4% and 53.8% and 55.8%
Arabidopsis thaliana | hypocotyl length | Col-0, seedlings | 100 µg/mL |  | 51%
Glycine max | fresh weight |  | soil surface spray, 150 g ai/ha, 21 days, pre-emergence crop safety |  | 8.5% and 9% and 10.5%
Arabidopsis thaliana | hypocotyl length | Col-0 | 12.5 µg/mL, 7 days, seed germination, dark |  | 12%
Arabidopsis thaliana | hypocotyl length | Col-0 | 100 µg/mL, 7 days, seed germination, dark |  | 51%
Arabidopsis thaliana | root length | Col-0, seedlings | 50 µg/mL |  | 46.3%
Arabidopsis thaliana | root length | Col-0, seedlings | 25 µg/mL | reference: water control | 20.5%
Arabidopsis thaliana | root length | Col-0, seedlings | 3.125 µg/mL |  | 6.89%
Arabidopsis thaliana | root length | Col-0, seedlings | 50 µg/mL | reference: water control | 46.3%
Arabidopsis thaliana | root length | Col-0, seedlings | 25 µg/mL |  | 20.5%
Arabidopsis thaliana | hypocotyl length | Col-0 | 25.0 µg/mL, 7 days, seed germination, dark |  | 22.7%
Avena fatua | fresh weight |  | 150 g ai/ha, pre-emergence treatment |  | 100%

For quick reference, copied from above (sample 2):
target | conditions | SYPRO Orange fluorescence
WDR5 | 91.81 °C | 41600 a.u.
WDR5 | 28 °C | 14900 a.u.
DCAF1 | 90.41 °C | 34700 a.u.
